Values quoted from earlier work that unrelated publications cite.
Numbered parts are unrelated; values within a part may stem from several laboratories. ± marks the error that the study gave.
UniProt P22002, sequence (whole entry, looked up): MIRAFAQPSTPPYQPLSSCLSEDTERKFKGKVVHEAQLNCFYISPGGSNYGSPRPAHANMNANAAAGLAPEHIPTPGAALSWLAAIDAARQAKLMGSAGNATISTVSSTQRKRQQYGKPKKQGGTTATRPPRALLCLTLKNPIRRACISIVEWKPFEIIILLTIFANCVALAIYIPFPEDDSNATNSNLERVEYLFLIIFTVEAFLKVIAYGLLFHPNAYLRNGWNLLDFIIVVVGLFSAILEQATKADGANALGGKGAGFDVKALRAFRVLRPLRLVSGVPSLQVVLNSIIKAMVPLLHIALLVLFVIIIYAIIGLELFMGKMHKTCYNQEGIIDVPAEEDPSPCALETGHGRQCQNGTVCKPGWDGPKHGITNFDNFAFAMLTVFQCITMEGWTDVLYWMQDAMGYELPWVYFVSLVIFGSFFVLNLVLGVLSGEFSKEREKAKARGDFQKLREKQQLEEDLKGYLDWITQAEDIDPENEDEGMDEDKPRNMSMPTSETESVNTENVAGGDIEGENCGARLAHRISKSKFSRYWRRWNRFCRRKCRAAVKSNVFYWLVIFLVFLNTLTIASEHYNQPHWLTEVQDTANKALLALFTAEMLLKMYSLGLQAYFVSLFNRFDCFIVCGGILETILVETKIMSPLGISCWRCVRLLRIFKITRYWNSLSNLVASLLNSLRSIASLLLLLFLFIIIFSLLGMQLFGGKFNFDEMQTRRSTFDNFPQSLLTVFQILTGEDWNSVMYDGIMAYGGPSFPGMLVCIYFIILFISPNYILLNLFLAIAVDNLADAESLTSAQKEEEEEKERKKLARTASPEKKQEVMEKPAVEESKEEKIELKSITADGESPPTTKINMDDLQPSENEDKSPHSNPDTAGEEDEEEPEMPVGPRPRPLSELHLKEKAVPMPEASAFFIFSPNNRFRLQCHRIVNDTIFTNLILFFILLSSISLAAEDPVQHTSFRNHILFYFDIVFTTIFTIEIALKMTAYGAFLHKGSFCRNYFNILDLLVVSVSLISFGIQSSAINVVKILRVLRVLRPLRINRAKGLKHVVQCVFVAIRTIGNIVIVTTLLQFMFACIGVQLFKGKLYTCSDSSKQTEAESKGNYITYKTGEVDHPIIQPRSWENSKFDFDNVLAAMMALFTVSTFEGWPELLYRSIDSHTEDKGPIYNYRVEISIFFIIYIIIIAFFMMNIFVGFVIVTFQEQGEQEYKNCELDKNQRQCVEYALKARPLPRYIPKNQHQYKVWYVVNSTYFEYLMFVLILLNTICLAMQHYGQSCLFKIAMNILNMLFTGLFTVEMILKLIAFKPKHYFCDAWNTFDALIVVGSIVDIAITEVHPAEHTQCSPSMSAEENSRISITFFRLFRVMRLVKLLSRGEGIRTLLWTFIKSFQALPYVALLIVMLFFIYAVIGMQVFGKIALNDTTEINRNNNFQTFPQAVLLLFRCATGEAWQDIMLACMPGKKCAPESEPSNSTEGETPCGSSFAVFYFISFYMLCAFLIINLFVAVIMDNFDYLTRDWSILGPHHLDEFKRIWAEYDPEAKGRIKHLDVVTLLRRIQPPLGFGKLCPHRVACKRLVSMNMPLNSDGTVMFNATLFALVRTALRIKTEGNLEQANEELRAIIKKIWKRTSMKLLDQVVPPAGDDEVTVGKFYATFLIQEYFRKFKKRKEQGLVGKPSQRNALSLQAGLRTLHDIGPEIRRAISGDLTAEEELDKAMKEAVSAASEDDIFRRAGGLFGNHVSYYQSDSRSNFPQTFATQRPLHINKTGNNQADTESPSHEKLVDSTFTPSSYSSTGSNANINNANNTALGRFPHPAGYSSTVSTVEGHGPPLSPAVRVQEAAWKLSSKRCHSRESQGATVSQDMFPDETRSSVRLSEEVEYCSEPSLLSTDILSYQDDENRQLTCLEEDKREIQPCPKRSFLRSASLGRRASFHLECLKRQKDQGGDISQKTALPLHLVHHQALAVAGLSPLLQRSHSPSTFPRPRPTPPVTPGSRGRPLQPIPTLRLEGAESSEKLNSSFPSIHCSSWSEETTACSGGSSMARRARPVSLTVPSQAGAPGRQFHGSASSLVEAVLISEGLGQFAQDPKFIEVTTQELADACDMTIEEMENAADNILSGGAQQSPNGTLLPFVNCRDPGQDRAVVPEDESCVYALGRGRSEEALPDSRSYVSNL
UniProt Q9UBS5, sequence (whole entry, looked up): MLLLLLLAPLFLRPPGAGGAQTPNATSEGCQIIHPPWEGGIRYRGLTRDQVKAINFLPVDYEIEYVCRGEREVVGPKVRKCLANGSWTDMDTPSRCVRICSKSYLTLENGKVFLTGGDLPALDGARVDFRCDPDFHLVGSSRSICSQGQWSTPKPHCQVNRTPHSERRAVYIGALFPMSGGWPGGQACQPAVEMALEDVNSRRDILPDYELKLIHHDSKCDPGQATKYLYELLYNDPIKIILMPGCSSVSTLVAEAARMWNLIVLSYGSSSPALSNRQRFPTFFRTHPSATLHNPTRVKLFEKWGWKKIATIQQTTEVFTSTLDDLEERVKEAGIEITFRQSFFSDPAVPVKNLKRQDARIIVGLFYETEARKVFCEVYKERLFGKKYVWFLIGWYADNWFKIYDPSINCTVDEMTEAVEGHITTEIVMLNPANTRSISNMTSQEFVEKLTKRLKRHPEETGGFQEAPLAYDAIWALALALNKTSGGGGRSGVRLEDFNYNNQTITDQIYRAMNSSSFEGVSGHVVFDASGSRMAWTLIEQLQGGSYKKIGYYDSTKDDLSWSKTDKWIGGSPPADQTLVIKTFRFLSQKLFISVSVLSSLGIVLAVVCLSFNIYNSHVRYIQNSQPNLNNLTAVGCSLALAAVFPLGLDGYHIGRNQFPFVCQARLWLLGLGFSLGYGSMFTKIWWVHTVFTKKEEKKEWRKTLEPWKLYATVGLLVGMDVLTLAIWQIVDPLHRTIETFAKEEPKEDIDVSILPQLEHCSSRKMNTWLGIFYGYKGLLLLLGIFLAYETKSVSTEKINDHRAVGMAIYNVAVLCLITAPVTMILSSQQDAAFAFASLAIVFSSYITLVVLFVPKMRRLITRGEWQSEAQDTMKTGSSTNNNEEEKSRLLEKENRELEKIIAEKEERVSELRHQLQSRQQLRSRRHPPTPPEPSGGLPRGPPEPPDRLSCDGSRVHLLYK
UniProt P21553, sequence (whole entry, looked up): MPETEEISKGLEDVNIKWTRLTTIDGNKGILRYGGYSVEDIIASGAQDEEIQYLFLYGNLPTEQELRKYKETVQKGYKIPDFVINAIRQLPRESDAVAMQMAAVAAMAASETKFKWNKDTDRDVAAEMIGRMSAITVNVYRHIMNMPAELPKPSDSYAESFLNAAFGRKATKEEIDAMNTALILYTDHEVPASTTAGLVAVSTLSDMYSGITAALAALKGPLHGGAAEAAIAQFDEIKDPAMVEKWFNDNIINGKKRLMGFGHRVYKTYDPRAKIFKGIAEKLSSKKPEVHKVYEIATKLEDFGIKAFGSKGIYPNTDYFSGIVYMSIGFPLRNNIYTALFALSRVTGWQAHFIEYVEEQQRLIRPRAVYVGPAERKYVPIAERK

Set 1 — observed: peptide-MHC binding; molecule type: peptide
Target: HLA class I histocompatibility antigen, A alpha chain, allele A*26:03 (Homo sapiens, UniProt P04439)
Sequence	IC50
RSLFNTIATLY	> 20 µM
SEINNLNLT	> 20 µM
SQMPPQKIM	> 20 µM
CVFKFIVAK	> 20 µM
NYFNRMFHF	> 20 µM
ETIGLVRAL	0.001 µM
RGRGVAIHR	> 20 µM
ISDPLTSGL	> 20 µM
ARHGEYAPF	> 20 µM
HEGDIVPLF	> 20 µM
IEFIEVVRL	> 20 µM
THYSGNIVH	> 20 µM
VELQIGWTV	> 20 µM
EIRHRSGIQ	> 20 µM
FQVNRFTGY	0.454 µM
EIEIEKNKK	> 20 µM
VLYCVHQRV	> 20 µM
WQFAIHYSF	> 20 µM
RYPGVMYAF	> 20 µM
RVYNNTARY	> 20 µM
RYSNFAWYF	> 20 µM
VLYCVHQEI	> 20 µM
HVFVCGNNM	0.076 µM
KYFDDVTAF	> 20 µM
TESDAIRTL	> 20 µM

Single results of other studies
Ar: Androgen receptor (Ar, Rattus norvegicus, UniProt P15207)
UniProt P15207, sequence (whole entry, looked up): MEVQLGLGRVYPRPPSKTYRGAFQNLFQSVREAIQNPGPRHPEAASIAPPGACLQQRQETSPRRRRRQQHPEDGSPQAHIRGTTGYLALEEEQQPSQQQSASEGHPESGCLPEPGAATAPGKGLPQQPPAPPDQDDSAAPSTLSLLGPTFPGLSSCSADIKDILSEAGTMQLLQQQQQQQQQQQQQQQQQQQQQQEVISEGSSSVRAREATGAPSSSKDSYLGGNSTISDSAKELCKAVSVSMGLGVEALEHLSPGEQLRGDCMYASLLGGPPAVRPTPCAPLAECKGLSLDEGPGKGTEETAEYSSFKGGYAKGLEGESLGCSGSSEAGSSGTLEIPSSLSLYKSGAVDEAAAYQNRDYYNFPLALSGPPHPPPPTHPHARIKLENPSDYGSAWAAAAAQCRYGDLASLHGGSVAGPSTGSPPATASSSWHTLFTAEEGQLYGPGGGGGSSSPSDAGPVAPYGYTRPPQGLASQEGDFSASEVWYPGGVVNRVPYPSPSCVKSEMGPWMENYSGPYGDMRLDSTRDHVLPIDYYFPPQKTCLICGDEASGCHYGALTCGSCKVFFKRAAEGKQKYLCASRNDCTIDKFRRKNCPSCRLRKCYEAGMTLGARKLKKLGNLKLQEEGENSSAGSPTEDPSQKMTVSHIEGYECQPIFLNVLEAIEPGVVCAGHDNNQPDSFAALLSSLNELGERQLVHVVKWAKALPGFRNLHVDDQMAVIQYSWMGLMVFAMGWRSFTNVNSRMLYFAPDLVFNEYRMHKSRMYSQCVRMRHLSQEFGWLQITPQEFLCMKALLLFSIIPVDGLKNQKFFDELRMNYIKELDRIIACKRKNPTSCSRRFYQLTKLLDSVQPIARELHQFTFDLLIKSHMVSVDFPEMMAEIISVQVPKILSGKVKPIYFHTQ
Structure (SMILES)	target or system	assay	test system	conditions	how to read	quantity	value
O=C(O)C(F)(F)C(F)(F)C(F)(F)C(F)(F)C(F)(F)C(F)(F)C(F)(F)F	–	–	human, young female	–	–	renal clearance	0.14 mL/day/kg
CCN(CC)C(=O)c1ccc([C@H](c2ccccc2)N2C[C@@H](C)N(Cc3cccc(F)c3)C[C@@H]2C)cc1	rat delta opioid receptor	binding	–	–	–	Ki	0.002 µM
COc1ccccc1OCCNC(=O)c1cc(=O)[nH]c2cccc(C)c12	main protease (Mpro)	–	–	20 µM	–	inhibition	91.8%
O=S(=O)(O)C(F)(F)C(F)(F)C(F)(F)C(F)(F)C(F)(F)C(F)(F)C(F)(F)C(F)(F)F	–	–	human, young female	–	–	renal clearance	0.038 mL/day/kg
OC(Cn1cncn1)(Cn1cncn1)c1ccc(F)cc1F	–	perpetrator, measured: diazepam	human	dose not given	reference: without compound	AUC increase	150%
CC(C)[C@@H](CN1CC[C@@](C)(c2cccc(O)c2)[C@@H](C)C1)NC(=O)[C@@H]1Cc2ccc(O)cc2CN1C	delta opioid receptor (human)	antagonist	–	together with: DPDPE	–	Ke	491 ± 120 nM
CCCC(C(=O)c1ccc2c(c1)OCO2)N1CCCC1.Cl (racemic)	–	–	male Sprague-Dawley rat, brain over plasma	sc, 1 mg/kg	–	Kp	~4
CCOC(=O)C1=C(C)NC(C)=C(C(=O)OC)C1c1cccc([N+](=O)[O-])c1 (centres unmarked)	Cacna1c (Rattus norvegicus, UniProt P22002)	–	–	–	–	Ki	0.00046 µM
CCn1c2ccccc2c2cc(-n3nncc3-c3ccccc3)ccc21	MDA-MB-231	–	–	120 h	–	GI50	0.13 µM
CCCCCOc1ccc(-c2cc(-c3ccc(C(=O)N[C@H]4C[C@@H](O)[C@@H](O)NC(=O)[C@@H]5[C@@H](O)[C@@H](C)CN5C(=O)[C@H]([C@H](O)CC(N)=O)NC(=O)[C@H]([C@H](O)[C@@H](O)c5ccc(O)c(OS(=O)(=O)O)c5)NC(=O)[C@@H]5C[C@@H](O)CN5C(=O)[C@H]([C@@H](C)O)NC4=O)cc3)no2)cc1	NTCP	substrate	–	–	–	Km	40 µM
CC(C)(COP(=O)(O)OP(=O)(O)OC[C@H]1O[C@@H](n2cnc3c(N)ncnc32)[C@H](O)[C@@H]1OP(=O)(O)O)[C@@H](O)C(=O)NCCC(=O)NCCSCC(=O)O	gltA, with oxaloacetate (Thermoplasma acidophilum, UniProt P21553)	–	–	–	–	Kd	~0.023 µM
CN1COCN(Cc2cnc(Cl)s2)/C1=N\[N+](=O)[O-]	–	–	test soil	0.37 mg/kg nominal, 0 days	–	measured soil concentration	0.31 mg/kg dry soil
CC(C)(O)C(=O)Nc1ccc([N+](=O)[O-])c(C(F)(F)F)c1	Ar	–	–	concentration not given	–	activity class	active
C[C@H](NC[C@H](O)CP(=O)(O)CC1CCCCC1)c1ccc(Cl)c(Cl)c1	GABBR1 (Homo sapiens, UniProt Q9UBS5)	–	–	–	–	Hill coefficient	1
Nc1cccc2c1C(=O)N(C1CCC(=O)NC1=O)C2=O (centres unmarked)	–	–	human, relapsed/refractory multiple myeloma	–	–	MTD	4 mg
Cn1cc2cc(C(F)(F)c3nnc4ccc(-c5cnn(C6CC6)c5)nn34)c(F)cc2n1	–	–	human, NSCLC patients	dose not given, phase II	–	median progression-free survival	14.1 months
Cc1cccc(-c2[nH]c(CNc3ccccc3F)nc2-c2ccc3ncnn3c2)n1	–	–	Beagle dog	28 days, GLP study, highest dose tested	–	NOAEL	30 mg/kg/day
COC(=O)[C@]12CCC(C)(C)C[C@H]1[C@H]1C(=O)C=C3[C@@]4(C)C=C(C#N)C(=O)C(C)(C)[C@@H]4CC[C@@]3(C)[C@]1(C)CC2	–	–	human	oral, 21 days daily dosing	–	maximum tolerated dose	900 mg
N=c1c2c(-c3ccccc3)c(-c3ccccc3)n(Cc3ccccc3)c2ncn1[C@H]1CC[C@H](O)CC1	–	–	mouse	intravenous, 3 mg/kg	–	plasma clearance	69000 mL/day/kg
C=C(C)[C@@H]1CCC(C)=C[C@H]1c1c(O)cc(CCCCC)cc1O	–	–	rat, male	intraperitoneal, minimal motor impairment	–	TD50	> 500 mg/kg
Cc1cc(-c2nccc3c2ccn3CC(=O)Nc2ccc(-c3cnccn3)cn2)ccn1	–	–	dog	–	–	NOAEL	30 mg/kg/day
Cc1ccncc1NC(=O)[C@H](C)OC(F)F	main protease (Mpro)	–	–	20 µM	–	inhibition	18.9%
Oc1cc(Cl)ccc1Oc1ccc(Cl)cc1Cl	–	–	plasma	literature value	–	fraction unbound	0.01
C[C@H]1CCCC(=O)CCC/C=C/c2cc(O)cc(O)c2C(=O)O1	Ar	validation reference set	–	concentration not given	–	AR binding call	inactive
NC(=O)O[C@@H](Cn1ncnn1)c1ccccc1Cl	–	–	male rat	i.p., MES seizure test	–	protective index	13.4

For quick reference, copied from above (single results of other studies):
Structure (SMILES)	target or system	assay	test system	conditions	how to read	quantity	value
CCOC(=O)C1=C(C)NC(C)=C(C(=O)OC)C1c1cccc([N+](=O)[O-])c1 (centres unmarked)	Cacna1c (Rattus norvegicus, UniProt P22002)	–	–	–	–	Ki	0.00046 µM
CCn1c2ccccc2c2cc(-n3nncc3-c3ccccc3)ccc21	MDA-MB-231	–	–	120 h	–	GI50	0.13 µM
CCCCCOc1ccc(-c2cc(-c3ccc(C(=O)N[C@H]4C[C@@H](O)[C@@H](O)NC(=O)[C@@H]5[C@@H](O)[C@@H](C)CN5C(=O)[C@H]([C@H](O)CC(N)=O)NC(=O)[C@H]([C@H](O)[C@@H](O)c5ccc(O)c(OS(=O)(=O)O)c5)NC(=O)[C@@H]5C[C@@H](O)CN5C(=O)[C@H]([C@@H](C)O)NC4=O)cc3)no2)cc1	NTCP	substrate	–	–	–	Km	40 µM
